Results pooled from the literature.
Protocols differ between the studies behind these lines. ± marks the error that the study gave.
Cell line: MDA-MB-231

| Compound | assay | conditions | IC50 |
| --- | --- | --- | --- |
| CCCCCCCCCCCCCCCC(=O)Oc1ccc(CO)cc1OC(C)=O | cell viability, MTT | 48 h, serum-free medium | 6.4 ± 2 µg/mL |
| CN(C)c1cc[n+](CCCCC[n+]2ccc(N(C)C)cc2)cc1 | cell growth or viability, MTT | 72 h | 54.7 µM |
| Cc1cc(C)c(N[C](NCc2cccc(N[C](Nc3c(C(C)C)cccc3C(C)C)=[Pd-]([Cl])([Cl])[C]#[N+]c3c(C(C)C)cccc3C(C)C)c2)=[Au][Cl])c(C)c1 | cell growth or viability |  | > 100 µM |
| Cc1cc(-c2ccccc2)c2ccc3c(-c4ccccc4)cc(C)nc3c2n1.[Cl-].[Cl-].[Ru+2].c1ccc(-c2ccccn2)nc1.c1ccc(-c2ccccn2)nc1 | cell viability, WST-1 | 72 h, dark | 5.55 µM |
| CCc1ccc(CNC(=O)[C@@H]2CC[C@@H]3CCN(C(=O)Cc4ccccc4)C[C@H](NC(=O)[C@H](C)NC)C(=O)N32)cc1 | cell growth or viability | 96 h | 0.164 µM |
| CC(C)=CCOc1ccc(-c2coc3cc4c(c(O)c3c2=O)C=CC(C)(C)O4)cc1 | cell growth or viability, MTT | 24 h | > 100 µM |
| COC(=O)[C@@H]1CCCN1C(=O)[C@H](C)N(C)C(=O)OC(C)(C)C | cell growth or viability, SRB |  | 11 µM |
| CC12CCC3c4ccc(Oc5no[n+]([O-])c5S(=O)(=O)c5ccccc5)cc4CCC3C1CCC2=O (stereo not shown) | cell growth or viability, MTT | 48 h | 0.423 µM |
| COc1ccc(/C(=C(/CCn2cc(CN3C(=O)C4(OCCO4)c4cc(F)ccc43)nn2)c2ccccc2)c2ccccc2)cc1 | cell growth or viability, MTT |  | > 100 µM |
| CC12CCC3c4ccc(OCCCOc5no[n+]([O-])c5S(=O)(=O)c5ccccc5)cc4CCC3C1CCC2=O (stereo not shown) | cell growth or viability, MTT | 48 h | 0.019 µM |
| COc1ccc(CNC[C@@](O)(COCc2ccc(OC)cc2)[C@@H]2CC[C@@H](C)C[C@H]2OCc2ccc(OC)cc2)cc1 | cell growth or viability, MTT | 72 h | 2.8 µM |
| CCN(CC)c1ccc(CNC(=O)[C@@H]2CC[C@@H]3CCN(C(=O)Cc4ccccc4)C[C@H](NC(=O)[C@H](C)NC)C(=O)N32)cc1 | cell growth or viability | 96 h | 0.675 µM |
| CCN(CC)c1ccc2c(c1)[O][Pd]([CH2]C#N)[N](C1CCCCC1)c1ncccc1N=C2 | cell growth or viability, MTT | 48 h | 40.6 µM |
| CCOC(=O)C1CC(C)C2C=CC3CCN(C(=O)C4CCC5C=CC6(CCCN6C(=O)C(Cc6ccccc6Cl)NC(C)=O)C(=O)N54)C3C(=O)N12 (stereo not shown) | cell migration |  | 24 µM |
| Cc1cc(C#N)cc(C)c1Oc1cc(Nc2ccc(C#N)cc2)nc2cnccc12 |  | 48 h | > 128 µM |
| CO[C@@H]1C(=O)c2ccc(O)cc2O[C@@H]1c1ccc(O)c(O)c1 (relative stereo) | cell growth or viability, MTT | 72 h | 193 µM |
| COc1ccc(CNC[C@](O)(COCc2ccccc2)[C@@H]2CC[C@@H](C)C[C@H]2OCc2ccccc2)cc1 | cell growth or viability, MTT | 72 h | 3.2 µM |
| Cc1cc(-c2ccccc2)c2ccc3c(-c4ccccc4)cc(C)[n+]4c3c2[n+]1[Re-2]4(=[C]=O)(=[C]=O)(=[C]=O)[O]C(=O)c1ccccn1 | cell growth or viability, resazurin | 72 h | 1.03 µM |
| COC(=O)C1CCCN1C(=O)C(Cc1ccccc1)N(C)C(=O)CC(O)C(CC(C)C)NC(=O)C(CC(C)C)N(C)C(=O)C(CC(C)C)NC(=O)C(O)C(C)C (stereo not shown) | cell growth or viability, MTT | 48 h | 40 µM |

| Compound | assay | conditions | IC50 |
| --- | --- | --- | --- |
| CCn1cc[n+](CC)c1 | cell growth or viability, crystal violet | 96 h | > 100 µM |
| COc1ccc(/N=N/C(=S)N2CCCC2)cc1 | cell growth or viability, resazurin | 48 h | > 50 µM |
| COC(=O)C1CN1S(=O)(=O)c1ccc2c(C=O)c(N(C)C)ccc2c1 (stereo not shown) | cell growth or viability, MTT | 48 h | 18 µM |
| CCCCCCCCCCCCCCCC(=O)Oc1ccc(CO)cc1OC(=O)CCCCCCCCCCCCCCC | cell viability, MTT | 48 h, serum-free medium | no effect |
| CC(C)c1cccc(C(C)C)c1N=[C](NCc1cccc(N)c1)[AuH][Cl] | cell growth or viability |  | 3.9 µM |
| CCCCCCCC(=O)Oc1c(C)c(OC)c2c(c1C)OC(=O)[C@@H](CCCCCC)[C@]2(O)/C=C/c1ccccc1 (racemic) | cell growth or viability, SRB | 72 h | > 50 µM |
| COc1ccc(/C=C/C(=O)/C=C/c2cn(-c3ccccc3)nc2C(=O)O)c(OC)c1 | cell growth | 72 h | 19.9 ± 6.77 µM |
| [Cl][Cu-][c]1n(-c2c(C(c3ccccc3)c3ccccc3)cc(C(c3ccccc3)c3ccccc3)cc2C(c2ccccc2)c2ccccc2)c2c([n+]1-c1c(C(c3ccccc3)c3ccccc3)cc(C(c3ccccc3)c3ccccc3)cc1C(c1ccccc1)c1ccccc1)-c1cccc3cccc-2c13 | cell growth or viability, MTT | 72 h | > 50 µM |
| O=C1C(=NN=c2[nH]ccs2)c2cc(Cl)ccc2N1CCn1ncc2c(=O)[nH]cnc21 | cell growth or viability, SRB | 72 h | 3.89 µM |
| CN[C@@H](C)C(=O)N[C@H]1CN(C(=O)Cc2ccccc2)CC[C@H]2CC[C@@H](C(=O)NCc3ccc(C(C)(C)C)cc3)N2C1=O | cell growth or viability | 96 h | 1.32 µM |
| Cc1ccc(C(C)C)cc1.F[P-](F)(F)(F)(F)F.O=C(N=P(c1ccccc1)(c1ccccc1)c1ccccc1)c1ccccn1.[Cl-].[Ru+2] | cell growth or viability, MTT | 24 h | 4.91 µM |
| Cc1cc(C)c([N+]#[C][Pd-]([Cl])([Cl])=[C](Nc2cccc(CN[C](NC(C)(C)C)=[Au][Cl])c2)Nc2c(C)cc(C)cc2C)c(C)c1 | cell growth or viability |  | > 100 µM |
| O=[C]=[Re-2]1(=[C]=O)(=[C]=O)([O]C(=O)c2ccccn2)[n+]2ccc(-c3ccccc3)c3ccc4c(-c5ccccc5)cc[n+]1c4c32 | cell growth or viability, resazurin | 72 h | 1.23 µM |
| CN1CCCC1CCO/N=C1/C=C2CCC3C(CC[C@]4(C)/C(=C/c5ccccn5)CCC34)[C@@]2(C)CC1 (stereo partly shown) | cell growth or viability, MTT | 72 h | > 100 µM |
| Cc1ccc(/C=N/NC(=O)c2cc3cc(Nc4nccc(-c5cccnc5)n4)ccc3[nH]2)cc1 | cell growth or viability, MTT | 48 h | 3.81 µM |
| O=C(O)CNc1nc(NNC(=O)c2ccc(Nc3nc(Nc4ccc(C(=O)NNc5nc(NCC(=O)O)nc(N6CCCCC6)n5)cc4)nc(Nc4ccc(C(=O)NNc5nc(NCC(=O)O)nc(N6CCCCC6)n5)cc4)n3)cc2)nc(N2CCCCC2)n1 | cell growth or viability, MTT | 72 h | 0.081 µM |
| COc1ccc(CNC[C@@](O)(COCc2ccc(F)cc2)[C@@H]2CC[C@@H](C)C[C@H]2OCc2ccc(F)cc2)cc1 | cell growth or viability, MTT | 72 h | 1.8 µM |
| C=C1C(=O)OC2CC3=C[C@@H](C/C(C)=C/C(OC(=O)Cc4cccc5ccccc45)[C@H]12)OC3=O (stereo partly shown) | cell growth or viability, MTT |  | 3.8 µM |

Excerpt of the above:
| Compound | assay | conditions | IC50 |
| --- | --- | --- | --- |
| Cc1cc(-c2ccccc2)c2ccc3c(-c4ccccc4)cc(C)[n+]4c3c2[n+]1[Re-2]4(=[C]=O)(=[C]=O)(=[C]=O)[O]C(=O)c1ccccn1 | cell growth or viability, resazurin | 72 h | 1.03 µM |
| Cc1cc(-c2ccccc2)c2ccc3c(-c4ccccc4)cc(C)nc3c2n1.[Cl-].[Cl-].[Ru+2].c1ccc(-c2ccccn2)nc1.c1ccc(-c2ccccn2)nc1 | cell viability, WST-1 | 72 h, dark | 5.55 µM |
| C=C1C(=O)OC2CC3=C[C@@H](C/C(C)=C/C(OC(=O)Cc4cccc5ccccc45)[C@H]12)OC3=O (stereo partly shown) | cell growth or viability, MTT |  | 3.8 µM |
